{"data": "Assay results of several laboratories", "note": "Numbered parts are unrelated; each lists some results of a single study.", "UniProt Q9FKM7, sequence (whole entry, looked up)": "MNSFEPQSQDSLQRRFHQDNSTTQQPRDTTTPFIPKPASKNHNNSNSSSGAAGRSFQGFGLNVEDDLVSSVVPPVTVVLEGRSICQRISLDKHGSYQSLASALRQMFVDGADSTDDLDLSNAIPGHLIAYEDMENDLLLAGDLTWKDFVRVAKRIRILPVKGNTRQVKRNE", "UniProt Q9LQE8, sequence (whole entry, looked up)": "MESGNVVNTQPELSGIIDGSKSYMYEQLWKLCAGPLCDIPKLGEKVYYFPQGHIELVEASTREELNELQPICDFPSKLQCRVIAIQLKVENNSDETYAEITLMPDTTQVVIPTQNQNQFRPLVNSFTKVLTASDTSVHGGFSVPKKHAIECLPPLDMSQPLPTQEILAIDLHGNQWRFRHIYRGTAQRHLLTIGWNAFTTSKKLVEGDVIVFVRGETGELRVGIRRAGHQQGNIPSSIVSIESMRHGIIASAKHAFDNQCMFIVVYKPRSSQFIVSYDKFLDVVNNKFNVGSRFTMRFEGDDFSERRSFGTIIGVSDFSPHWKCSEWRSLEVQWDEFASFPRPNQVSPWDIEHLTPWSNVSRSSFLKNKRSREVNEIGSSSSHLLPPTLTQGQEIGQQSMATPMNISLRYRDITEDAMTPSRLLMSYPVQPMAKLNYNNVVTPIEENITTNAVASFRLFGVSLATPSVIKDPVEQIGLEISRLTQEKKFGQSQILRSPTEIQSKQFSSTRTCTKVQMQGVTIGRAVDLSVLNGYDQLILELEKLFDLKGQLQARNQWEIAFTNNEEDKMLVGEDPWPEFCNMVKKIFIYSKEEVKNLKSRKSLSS", "UniProt Q9ZTX9, sequence (whole entry, looked up)": "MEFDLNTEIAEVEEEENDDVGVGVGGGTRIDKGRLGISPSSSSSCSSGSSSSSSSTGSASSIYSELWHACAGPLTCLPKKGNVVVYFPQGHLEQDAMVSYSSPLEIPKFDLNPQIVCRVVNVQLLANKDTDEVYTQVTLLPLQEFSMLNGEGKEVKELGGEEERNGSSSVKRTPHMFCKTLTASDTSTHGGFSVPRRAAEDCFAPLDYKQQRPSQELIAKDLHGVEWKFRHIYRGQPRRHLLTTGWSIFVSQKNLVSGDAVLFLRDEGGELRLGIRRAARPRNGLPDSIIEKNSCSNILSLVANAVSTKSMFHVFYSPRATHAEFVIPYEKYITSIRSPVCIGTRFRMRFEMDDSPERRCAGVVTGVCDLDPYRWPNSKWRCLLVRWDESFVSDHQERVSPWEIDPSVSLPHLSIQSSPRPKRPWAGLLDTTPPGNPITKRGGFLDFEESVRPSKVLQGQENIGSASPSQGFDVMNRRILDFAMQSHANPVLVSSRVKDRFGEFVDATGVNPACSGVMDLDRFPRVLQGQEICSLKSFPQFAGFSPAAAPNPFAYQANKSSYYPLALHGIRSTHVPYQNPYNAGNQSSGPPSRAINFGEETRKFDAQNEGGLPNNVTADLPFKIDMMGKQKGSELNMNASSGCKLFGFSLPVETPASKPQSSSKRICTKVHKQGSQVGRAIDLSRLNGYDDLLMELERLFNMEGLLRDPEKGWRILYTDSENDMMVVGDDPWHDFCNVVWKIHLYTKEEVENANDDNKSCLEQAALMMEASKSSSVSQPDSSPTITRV", "UniProt Q9ZPY6, sequence (whole entry, looked up)": "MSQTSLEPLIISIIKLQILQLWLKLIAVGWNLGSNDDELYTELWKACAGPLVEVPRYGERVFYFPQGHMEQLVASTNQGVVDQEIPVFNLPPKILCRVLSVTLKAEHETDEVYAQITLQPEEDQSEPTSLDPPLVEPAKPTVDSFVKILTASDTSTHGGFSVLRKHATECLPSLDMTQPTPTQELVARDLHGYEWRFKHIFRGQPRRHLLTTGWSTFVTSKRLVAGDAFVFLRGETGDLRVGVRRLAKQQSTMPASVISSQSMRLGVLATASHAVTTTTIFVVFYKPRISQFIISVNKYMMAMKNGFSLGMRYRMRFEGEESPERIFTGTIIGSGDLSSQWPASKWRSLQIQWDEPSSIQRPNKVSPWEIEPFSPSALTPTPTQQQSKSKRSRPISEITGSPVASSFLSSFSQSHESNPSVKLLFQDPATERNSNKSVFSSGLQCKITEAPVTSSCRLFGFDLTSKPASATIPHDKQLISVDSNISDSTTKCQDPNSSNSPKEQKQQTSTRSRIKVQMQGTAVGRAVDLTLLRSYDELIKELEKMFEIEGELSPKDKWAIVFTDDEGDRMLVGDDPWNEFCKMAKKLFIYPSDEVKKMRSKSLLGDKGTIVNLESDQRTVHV"}
{"data": "Set 1", "target": "Interferon regulatory factor 7, full length, phosphomimetic (IRF7, Homo sapiens, UniProt Q92985, residues 1-503, S471D/S472D/S475D/S476D/S477D/S483D/S484D/S487D)", "technique": "protein-binding microarray", "molecule type": "double-stranded DNA, one strand shown", "medium": "in vitro", "concentration": "2200 nM top", "notes": "60-bp whole probe", "together with": "salmon DNA 0.4 mg/ml", "relative to": "random background probes", "direction": "higher = stronger binding", "all sequences stand within": "GCCTAGCAC … GTCTTGATTCGCTTGACGCTGCTG", "UniProt Q92985, sequence (whole entry, unmodified, looked up)": "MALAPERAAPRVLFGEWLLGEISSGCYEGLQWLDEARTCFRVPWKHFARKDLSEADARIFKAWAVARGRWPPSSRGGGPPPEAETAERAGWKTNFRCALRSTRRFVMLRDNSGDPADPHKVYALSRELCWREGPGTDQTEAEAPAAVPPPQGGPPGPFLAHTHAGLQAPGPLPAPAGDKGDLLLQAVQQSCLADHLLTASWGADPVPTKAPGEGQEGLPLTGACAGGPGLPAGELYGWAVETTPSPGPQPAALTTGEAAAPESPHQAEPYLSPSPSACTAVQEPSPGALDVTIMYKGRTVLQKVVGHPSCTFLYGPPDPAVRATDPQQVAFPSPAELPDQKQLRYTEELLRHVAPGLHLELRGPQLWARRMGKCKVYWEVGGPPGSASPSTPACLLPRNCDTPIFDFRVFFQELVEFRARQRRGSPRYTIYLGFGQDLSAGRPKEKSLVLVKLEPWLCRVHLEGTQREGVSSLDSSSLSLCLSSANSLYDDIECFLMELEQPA"}
{"Strand": "TTAGGTACCGGGTTTCGGTTAGTGCTA", "fitted relative affinity [z-score]": 3.73}
{"Strand": "GATGGTTTCGACTTTCGGGACGTGCTA", "fitted relative affinity [z-score]": 8.96}
{"Strand": "GACGTTATCAGTTTCGAGACGTGCTAG", "fitted relative affinity [z-score]": 3.83}
{"Strand": "CCTGAAATCTCTTTCCTTACGTGCTAG", "fitted relative affinity [z-score]": 1.45}
{"Strand": "TATCAGTAGGTAAGGAAAAGGTGCTAG", "fitted relative affinity [z-score]": -0.595}
{"Strand": "GACGAACTGAGCCTCGAGACGTGCTAG", "fitted relative affinity [z-score]": -0.143}
{"Strand": "GACGGACTGGGGTTTCGGGACGTGCTA", "fitted relative affinity [z-score]": 0.46}
{"Strand": "TTAGATCTTAGTATCGATTAGTGCTAG", "fitted relative affinity [z-score]": 0.285}
{"data": "Set 2", "Sequence": "B1 (IAA18)", "technique": "two-hybrid", "relative to": "out of 4 tests", "direction": "higher = firmer interaction", "B1": "IAA18 (Arabidopsis thaliana, UniProt O24408); chain MEGYSRNGEISPKLLDLMIPQERRNWFHDEKNSVFKTEEKKLELKLGPPGEEDDDESMIRHMKKEPKDKSILSLAGKYFSPSSTKTTSHKRTAPGPVVGWPPVRSFRKNLASGSSSKLGNDSTTSNGVTLKNQKCDAAAKTTEPKRQGGMFVKINMYGVPIGRKVDLSAHNSYEQLSFTVDKLFRGLLAAQRDFPSSIEDEKPITGLLDGNGEYTLTYEDNEGDKMLVGDVPWQMFVSSVKRLRVIKTSEISSALTYGNGKQEKMRR"}
{"partner": "ARF14 497-605 (Arabidopsis thaliana, UniProt Q9LQE8)", "positive tests": 0}
{"partner": "IAA33 (Arabidopsis thaliana, UniProt Q9FKM7)", "positive tests": 2}
{"partner": "ARF11 500-622 (Arabidopsis thaliana, UniProt Q9ZPY6)", "positive tests": 0}
{"partner": "ARF4 660-788 (Arabidopsis thaliana, UniProt Q9ZTX9)", "positive tests": 0}
{"data": "Other studies, line by line"}
{"Substance": "ZFYVE9 (Homo sapiens, UniProt O95405)", "tested on": "LRPAP1 (Homo sapiens, UniProt P30533)", "test": "cross-linking MS", "system": "cell fractions", "conditions": "together with: DSSO", "measurement": "cross-linked residues", "value": "S1219 to K225"}
{"Substance": "CCn1c(C(=O)N(C)c2cc(C)ccc2OC)cc2c(=O)oc3ccccc3c21", "system": "human, microsomes or S9", "conditions": "2 µM, 0.5 h", "measurement": "remaining compound", "value": "0.876%"}
{"Substance": "DNAAF5 (Homo sapiens, UniProt Q86Y56)", "tested on": "RUVBL1 (Homo sapiens, UniProt Q9Y265)", "test": "cross-linking MS", "system": "cell fractions", "conditions": "together with: DSSO", "measurement": "cross-linked residues", "value": "S42 to K422"}
{"Substance": "SUCLG1 (Homo sapiens, UniProt P53597)", "tested on": "SUCLG2 (Homo sapiens, UniProt Q96I99)", "test": "cross-linking MS", "system": "cell fractions", "conditions": "together with: DHSO", "measurement": "cross-linked residues", "value": "E77 to E400"}
{"Substance": "GSN (Homo sapiens, UniProt P06396)", "tested on": "GOT1 (Homo sapiens, UniProt P17174)", "test": "cross-linking MS", "system": "cell fractions", "conditions": "together with: DSSO", "measurement": "cross-linked residues", "value": "K169 to K290"}
{"note": "Some of these lines once more (other studies, line by line):"}
{"Substance": "ZFYVE9 (Homo sapiens, UniProt O95405)", "tested on": "LRPAP1 (Homo sapiens, UniProt P30533)", "test": "cross-linking MS", "system": "cell fractions", "conditions": "together with: DSSO", "measurement": "cross-linked residues", "value": "S1219 to K225"}
{"Substance": "CCn1c(C(=O)N(C)c2cc(C)ccc2OC)cc2c(=O)oc3ccccc3c21", "system": "human, microsomes or S9", "conditions": "2 µM, 0.5 h", "measurement": "remaining compound", "value": "0.876%"}
